Results collected from several papers.
Values joined by “and” are separate records of one study, mostly repeats; a detail may differ. Numbers after ± are the reported error.
SLC6A2: Sodium-dependent noradrenaline transporter (SLC6A2, Homo sapiens, UniProt P23975)
UniProt P23975, sequence (whole entry, looked up): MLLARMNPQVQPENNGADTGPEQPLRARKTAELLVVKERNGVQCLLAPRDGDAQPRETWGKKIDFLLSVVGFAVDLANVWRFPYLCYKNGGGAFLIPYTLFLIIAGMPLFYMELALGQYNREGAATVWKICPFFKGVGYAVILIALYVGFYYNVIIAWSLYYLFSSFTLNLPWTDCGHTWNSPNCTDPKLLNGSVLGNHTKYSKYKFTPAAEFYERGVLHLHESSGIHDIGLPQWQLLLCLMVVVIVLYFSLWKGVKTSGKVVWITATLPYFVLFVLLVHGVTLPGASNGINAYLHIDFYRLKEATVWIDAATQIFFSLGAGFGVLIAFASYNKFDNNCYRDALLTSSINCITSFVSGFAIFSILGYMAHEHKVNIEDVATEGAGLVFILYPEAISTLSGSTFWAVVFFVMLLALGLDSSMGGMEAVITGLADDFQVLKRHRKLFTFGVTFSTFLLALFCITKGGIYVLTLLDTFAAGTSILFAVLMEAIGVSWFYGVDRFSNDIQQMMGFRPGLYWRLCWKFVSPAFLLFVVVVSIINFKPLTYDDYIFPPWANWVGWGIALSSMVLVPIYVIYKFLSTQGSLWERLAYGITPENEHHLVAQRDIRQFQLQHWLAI
Luciferin 4-monooxygenase: Luciferin 4-monooxygenase (Photinus pyralis, UniProt P08659)
UniProt P08659, sequence (whole entry, looked up): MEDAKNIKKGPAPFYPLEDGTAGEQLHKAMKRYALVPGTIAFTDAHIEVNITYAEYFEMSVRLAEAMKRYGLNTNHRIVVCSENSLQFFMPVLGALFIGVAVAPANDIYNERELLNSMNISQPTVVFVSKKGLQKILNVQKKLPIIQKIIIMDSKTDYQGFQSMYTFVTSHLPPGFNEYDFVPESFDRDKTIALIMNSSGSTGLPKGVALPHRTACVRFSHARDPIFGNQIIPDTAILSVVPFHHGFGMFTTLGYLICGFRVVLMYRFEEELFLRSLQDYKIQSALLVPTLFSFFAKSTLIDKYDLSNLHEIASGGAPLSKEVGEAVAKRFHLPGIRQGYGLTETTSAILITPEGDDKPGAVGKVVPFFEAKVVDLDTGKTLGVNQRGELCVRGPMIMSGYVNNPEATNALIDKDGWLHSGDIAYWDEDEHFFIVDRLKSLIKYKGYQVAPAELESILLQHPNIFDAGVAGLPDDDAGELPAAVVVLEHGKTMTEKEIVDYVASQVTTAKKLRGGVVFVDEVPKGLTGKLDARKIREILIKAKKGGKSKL
OXSR1: Serine/threonine-protein kinase OSR1 (OXSR1, Homo sapiens, UniProt O95747)
UniProt O95747, sequence (whole entry, looked up): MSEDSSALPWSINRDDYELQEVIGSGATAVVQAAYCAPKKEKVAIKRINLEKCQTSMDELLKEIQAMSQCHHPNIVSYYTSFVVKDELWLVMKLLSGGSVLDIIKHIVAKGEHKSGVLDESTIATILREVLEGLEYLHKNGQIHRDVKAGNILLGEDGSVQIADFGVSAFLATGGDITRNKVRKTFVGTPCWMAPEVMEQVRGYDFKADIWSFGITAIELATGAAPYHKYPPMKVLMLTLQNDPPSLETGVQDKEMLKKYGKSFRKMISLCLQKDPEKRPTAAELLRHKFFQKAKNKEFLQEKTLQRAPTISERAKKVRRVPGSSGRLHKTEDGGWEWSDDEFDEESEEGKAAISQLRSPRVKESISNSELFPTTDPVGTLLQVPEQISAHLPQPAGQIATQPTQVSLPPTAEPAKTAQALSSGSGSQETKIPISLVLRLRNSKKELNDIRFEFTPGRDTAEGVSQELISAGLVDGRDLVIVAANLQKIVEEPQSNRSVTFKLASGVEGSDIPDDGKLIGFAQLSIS
HTR1E: 5-hydroxytryptamine receptor 1E (HTR1E, Homo sapiens, UniProt P28566)
UniProt Q02294, sequence (whole entry, looked up): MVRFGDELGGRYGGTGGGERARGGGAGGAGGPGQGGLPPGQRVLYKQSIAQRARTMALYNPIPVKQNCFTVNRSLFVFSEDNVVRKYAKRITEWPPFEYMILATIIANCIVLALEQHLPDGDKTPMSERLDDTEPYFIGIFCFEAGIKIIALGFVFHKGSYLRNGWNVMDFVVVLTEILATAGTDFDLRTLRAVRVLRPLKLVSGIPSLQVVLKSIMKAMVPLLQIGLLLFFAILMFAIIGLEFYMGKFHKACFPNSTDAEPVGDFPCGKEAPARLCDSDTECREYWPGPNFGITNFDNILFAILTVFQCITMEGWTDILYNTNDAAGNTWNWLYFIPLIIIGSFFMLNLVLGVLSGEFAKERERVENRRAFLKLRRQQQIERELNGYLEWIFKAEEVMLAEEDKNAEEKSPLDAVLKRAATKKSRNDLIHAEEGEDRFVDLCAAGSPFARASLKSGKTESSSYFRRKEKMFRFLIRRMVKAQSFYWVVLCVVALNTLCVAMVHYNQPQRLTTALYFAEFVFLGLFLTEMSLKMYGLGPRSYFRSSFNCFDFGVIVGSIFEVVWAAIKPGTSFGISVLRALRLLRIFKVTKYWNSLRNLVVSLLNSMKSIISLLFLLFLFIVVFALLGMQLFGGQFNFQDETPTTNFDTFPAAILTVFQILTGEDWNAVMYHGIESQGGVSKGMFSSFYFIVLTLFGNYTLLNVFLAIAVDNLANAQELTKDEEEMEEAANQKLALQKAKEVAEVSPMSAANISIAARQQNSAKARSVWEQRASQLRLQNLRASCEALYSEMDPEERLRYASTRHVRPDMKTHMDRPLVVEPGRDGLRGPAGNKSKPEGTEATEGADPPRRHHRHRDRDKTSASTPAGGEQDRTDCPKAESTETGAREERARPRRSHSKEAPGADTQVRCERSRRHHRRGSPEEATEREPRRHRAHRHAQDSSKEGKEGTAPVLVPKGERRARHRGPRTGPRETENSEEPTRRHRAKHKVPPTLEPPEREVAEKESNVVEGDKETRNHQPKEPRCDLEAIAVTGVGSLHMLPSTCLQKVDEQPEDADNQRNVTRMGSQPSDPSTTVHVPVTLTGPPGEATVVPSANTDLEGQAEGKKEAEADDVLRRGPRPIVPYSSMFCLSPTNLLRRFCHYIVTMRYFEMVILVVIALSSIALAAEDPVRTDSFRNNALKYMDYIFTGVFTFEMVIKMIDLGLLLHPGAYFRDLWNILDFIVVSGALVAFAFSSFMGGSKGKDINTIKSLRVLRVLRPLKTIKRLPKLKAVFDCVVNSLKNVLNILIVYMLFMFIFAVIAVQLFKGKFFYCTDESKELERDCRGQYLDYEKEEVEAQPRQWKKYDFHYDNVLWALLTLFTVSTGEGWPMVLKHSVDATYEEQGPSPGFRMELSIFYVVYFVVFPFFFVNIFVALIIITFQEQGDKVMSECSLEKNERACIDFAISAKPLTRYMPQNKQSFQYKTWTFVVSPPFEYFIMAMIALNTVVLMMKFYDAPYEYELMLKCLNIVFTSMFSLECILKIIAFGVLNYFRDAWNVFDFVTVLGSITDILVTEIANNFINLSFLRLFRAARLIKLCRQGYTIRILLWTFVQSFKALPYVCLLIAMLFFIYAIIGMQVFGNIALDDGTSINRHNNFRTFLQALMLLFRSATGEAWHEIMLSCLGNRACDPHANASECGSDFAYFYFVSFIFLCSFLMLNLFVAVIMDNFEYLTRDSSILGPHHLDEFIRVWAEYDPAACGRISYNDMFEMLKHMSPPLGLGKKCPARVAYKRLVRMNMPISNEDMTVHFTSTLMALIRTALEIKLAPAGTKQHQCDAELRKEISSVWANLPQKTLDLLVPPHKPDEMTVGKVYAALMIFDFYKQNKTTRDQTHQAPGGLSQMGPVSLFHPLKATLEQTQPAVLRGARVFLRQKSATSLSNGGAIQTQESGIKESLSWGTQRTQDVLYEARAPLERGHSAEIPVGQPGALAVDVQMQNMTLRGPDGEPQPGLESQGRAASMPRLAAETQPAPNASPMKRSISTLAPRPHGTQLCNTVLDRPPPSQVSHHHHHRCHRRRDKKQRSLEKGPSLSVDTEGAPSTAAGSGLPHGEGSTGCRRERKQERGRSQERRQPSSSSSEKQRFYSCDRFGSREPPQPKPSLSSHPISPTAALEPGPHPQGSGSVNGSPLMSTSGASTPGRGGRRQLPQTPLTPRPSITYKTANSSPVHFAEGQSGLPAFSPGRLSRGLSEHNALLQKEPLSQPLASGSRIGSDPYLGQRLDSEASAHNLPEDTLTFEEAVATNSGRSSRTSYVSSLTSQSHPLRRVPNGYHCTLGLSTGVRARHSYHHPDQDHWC
UniProt P28566, sequence (whole entry, looked up): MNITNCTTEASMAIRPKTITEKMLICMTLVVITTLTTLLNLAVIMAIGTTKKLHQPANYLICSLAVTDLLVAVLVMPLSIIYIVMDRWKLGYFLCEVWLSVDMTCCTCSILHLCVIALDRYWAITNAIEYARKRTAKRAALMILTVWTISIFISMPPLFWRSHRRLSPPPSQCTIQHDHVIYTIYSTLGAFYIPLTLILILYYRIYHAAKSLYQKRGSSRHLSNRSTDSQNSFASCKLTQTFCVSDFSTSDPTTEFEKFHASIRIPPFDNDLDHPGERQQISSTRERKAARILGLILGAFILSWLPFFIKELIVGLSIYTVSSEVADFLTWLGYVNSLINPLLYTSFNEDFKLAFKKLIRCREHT
UniProt P50897, sequence (whole entry, looked up): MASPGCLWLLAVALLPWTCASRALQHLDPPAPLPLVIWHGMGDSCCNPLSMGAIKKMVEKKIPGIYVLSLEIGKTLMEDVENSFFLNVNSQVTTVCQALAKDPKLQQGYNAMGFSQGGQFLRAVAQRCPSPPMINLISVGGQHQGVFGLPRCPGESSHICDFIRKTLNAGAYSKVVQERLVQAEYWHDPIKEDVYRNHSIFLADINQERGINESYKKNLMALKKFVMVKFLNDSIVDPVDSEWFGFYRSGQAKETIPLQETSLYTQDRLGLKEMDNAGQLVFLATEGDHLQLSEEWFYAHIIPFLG

Compound | tested on | assay | system | setting | how to read | measurement | value
CCS(=O)(=O)c1nc(S(=O)(=O)c2ccccc2Cl)c(N2CCN(C)C(=O)[C@H]2C)s1 | SLC6A2 | – | – | 10 µM | – | inhibition | 18.8%
O=c1ccc2nc3ccc(O[C@@H]4O[C@H](CO)[C@H](O)[C@H](O)[C@H]4O)cc3oc-2c1 | Adhesin FmlH, lectin domain (Escherichia coli, UniProt Q1RBS0) | binding to desialylated mucin, ELISA competition | UPEC UTI89 | 10 µM, with: desialylated bovine submaxillary mucin | – | inhibition | 24 ± 3.2%
CN(O)N=Nc1ccc(S(=O)(=O)Nc2nccs2)cc1 | α-glucosidase, rat intestine | enzyme activity | – | 240 µg/mL, with: 4-nitrophenyl α-D-glucopyranoside | – | inhibition | 52.5 ± 0.04%
Cc1ccc(C(=O)Nc2ccc3ccccc3c2)o1 | Cacna1b (Rattus norvegicus, UniProt Q02294) | ion current, inhibitor, whole-cell patch clamp | – | 10 µM | – | inhibition | 3.8% and 10% and 8.2% and 10.1% and 7.4%
Cc1ncc2c(c1-c1noc(C3CN(C(C)C)C3)n1)CCNC2 | Luciferin 4-monooxygenase | luciferase luminescence, inhibitor | cell-free | 50 µM, counter-screen | – | inhibition | 3.03%
CC[C@@H]1[C@H](F)C(=O)N[C@@H]1COc1nccc2cc(C(N)=O)c(OC)cc12 | OXSR1 | ATP-site probe binding, ActivX profiling, measured: OSR1 | THP-1 cell lysate | 0.04 mM, Lys2 site | – | inhibition | -9.1%
c1ccc(OC[C@@H]2CN(CCN3CCc4ccccc43)CCO2)cc1 | HTR1E | radioligand binding | – | concentration not given, with: [3H]5-HT | – | inhibition | -13.8%
CN1CCN(c2cc(-c3ccncc3)c(-c3ccc4ccccc4c3)nn2)CC1 | TSHR (Homo sapiens, UniProt P16473) | antagonist, FLIPR | – | 10 µM | – | inhibition | 20.2%
O=C(Nc1nc2cccc(-c3ccc(CN4CCS(=O)(=O)CC4)cc3)n2n1)C1CC1 | – | measured: blood amylase increased | rheumatoid arthritis patients | oral, 30 mg once daily, 4 weeks, any relatedness | – | treatment-emergent adverse events | 0%
CCCCCCCC/C=C\CCCCCCCC(=O)O.NCCO | Palmitoyl-protein thioesterase 1 (Homo sapiens, UniProt P50897) | Spectrum Collection screen | – | concentration not given, with: substrate 20 µM | – | inhibition | 64.3%
Cc1ccc(N(O)N=Nc2ccc(S(=O)(=O)Nc3onc(C)c3C)cc2)cc1 | α-glucosidase, rat intestine | enzyme activity | – | 240 µg/mL, with: 4-nitrophenyl α-D-glucopyranoside | – | inhibition | 40 ± 0.16%
O=C(NO)c1ccc(CN2CCCCc3ccccc32)c(F)c1 | SLC6A2 | radioligand binding, PDSP radioligand binding | – | 10 µM | – | inhibition | -61.9%
COc1ccccc1N1CCN(CCCCN2CCc3ccccc3C2=O)CC1 | HTR1E | radioligand binding | – | concentration not given, with: [3H]5-HT | – | inhibition | -14.7%
COc1cc2c(c(O)c1OC)C(=O)c1c(cc(C)c(O)c1OC)C2=O | HK-2 co-cultured with HepaRG | MTT | – | 266.67 µM, 24 h | relative to: untreated control | cell viability | 27 ± 2.35%
CN(C(=O)n1cnc(-c2ccc[n+]([O-])c2)c1)C1CCCCC1 | glutamate decarboxylase | enzyme activity | – | concentration not given | – | inhibition | 11.1%
CCN1CCN(Cc2ccc(NC(=O)c3ccc(C)c(Oc4ccnc5[nH]ccc45)c3)cc2C(F)(F)F)CC1 | DGKA (Homo sapiens, UniProt P23743) | – | A-375 | 5 µM | – | inhibition | -11.9%
O=S(=O)(Nc1nccs1)c1ccc(N=NN(O)c2ccccc2)cc1 | α-glucosidase, rat intestine | enzyme activity | – | 20 µg/mL, with: 4-nitrophenyl α-D-glucopyranoside | – | inhibition | 2.5 ± 1.43%
COc1ccc(F)cc1C(=O)NCc1ccc(-c2nn([C@@H](C)C(F)(F)F)c(N)c2C(N)=O)cc1 | OXSR1 | target engagement, competitive chemoproteomics | human PBMCs | 10 µM | – | inhibition | 1.1%
CCc1nc2cc(-c3noc(-c4ccccc4C)n3)ccc2o1 | Luciferin 4-monooxygenase | luciferase luminescence, inhibitor | cell-free | 50 µM, counter-screen | – | inhibition | 85.7%
Cc1cc(NS(=O)(=O)c2ccc(N=NN(O)c3ccccc3)cc2)no1 | α-glucosidase, rat intestine | enzyme activity | – | 300 µg/mL, with: 4-nitrophenyl α-D-glucopyranoside | – | inhibition | 55 ± 0.18%
O=C1c2cccc(O)c2C(=O)c2c(O)cc(CO)cc21 | HK-2 co-cultured with HepaRG | MTT | – | 133.33 µM, 24 h | relative to: untreated control | viability | 146 ± 22.2%
CCN(O)N=Nc1ccc(S(=O)(=O)Nc2onc(C)c2C)cc1 | α-glucosidase, rat intestine | enzyme activity | – | 20 µg/mL, with: 4-nitrophenyl α-D-glucopyranoside | – | inhibition | 4.5 ± 2.34%
CCN1CCN(C2(C(=O)NCc3cnc(C)cn3)Cc3ccccc3C2)CC1 | Luciferin 4-monooxygenase | luciferase luminescence, inhibitor | cell-free | 50 µM, counter-screen | – | inhibition | 5.83%

Repeated from above:
Compound | tested on | assay | system | setting | how to read | measurement | value
O=C(NO)c1ccc(CN2CCCCc3ccccc32)c(F)c1 | SLC6A2 | radioligand binding, PDSP radioligand binding | – | 10 µM | – | inhibition | -61.9%
CCN(O)N=Nc1ccc(S(=O)(=O)Nc2onc(C)c2C)cc1 | α-glucosidase, rat intestine | enzyme activity | – | 20 µg/mL, with: 4-nitrophenyl α-D-glucopyranoside | – | inhibition | 4.5 ± 2.34%
CN(C(=O)n1cnc(-c2ccc[n+]([O-])c2)c1)C1CCCCC1 | glutamate decarboxylase | enzyme activity | – | concentration not given | – | inhibition | 11.1%
